# Experimental data collected from several papers.
# Lines come from different studies, so protocols differ. Numbers after ± are the reported error.
# GRPR: Gastrin-releasing peptide receptor (GRPR, Homo sapiens, UniProt P30550)
# Sequence of UniProt P30550 (whole entry, looked up): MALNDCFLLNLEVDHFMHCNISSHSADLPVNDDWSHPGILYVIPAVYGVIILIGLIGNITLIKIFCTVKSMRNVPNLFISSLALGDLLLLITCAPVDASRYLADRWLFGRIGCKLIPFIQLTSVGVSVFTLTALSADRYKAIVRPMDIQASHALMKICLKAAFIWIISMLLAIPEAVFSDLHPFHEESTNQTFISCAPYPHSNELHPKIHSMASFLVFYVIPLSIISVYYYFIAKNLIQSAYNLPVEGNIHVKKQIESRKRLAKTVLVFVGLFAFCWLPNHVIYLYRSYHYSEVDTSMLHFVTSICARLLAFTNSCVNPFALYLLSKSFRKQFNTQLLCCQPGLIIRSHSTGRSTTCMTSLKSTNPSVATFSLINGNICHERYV
# Mc1r: Melanocyte-stimulating hormone receptor (Mc1r, Mus musculus, UniProt Q01727)
# Sequence of UniProt Q01727 (whole entry, looked up): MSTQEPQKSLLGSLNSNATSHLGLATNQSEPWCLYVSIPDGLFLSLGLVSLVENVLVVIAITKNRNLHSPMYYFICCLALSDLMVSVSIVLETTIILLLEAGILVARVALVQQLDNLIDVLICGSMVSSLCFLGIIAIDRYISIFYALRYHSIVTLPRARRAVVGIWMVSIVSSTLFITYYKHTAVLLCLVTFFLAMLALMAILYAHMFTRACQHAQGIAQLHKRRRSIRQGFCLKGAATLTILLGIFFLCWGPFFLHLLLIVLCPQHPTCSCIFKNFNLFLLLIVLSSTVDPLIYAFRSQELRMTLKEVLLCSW
# uidA: Beta-glucuronidase (uidA, Escherichia coli, UniProt P05804)
# Sequence of UniProt P05804 (whole entry, looked up): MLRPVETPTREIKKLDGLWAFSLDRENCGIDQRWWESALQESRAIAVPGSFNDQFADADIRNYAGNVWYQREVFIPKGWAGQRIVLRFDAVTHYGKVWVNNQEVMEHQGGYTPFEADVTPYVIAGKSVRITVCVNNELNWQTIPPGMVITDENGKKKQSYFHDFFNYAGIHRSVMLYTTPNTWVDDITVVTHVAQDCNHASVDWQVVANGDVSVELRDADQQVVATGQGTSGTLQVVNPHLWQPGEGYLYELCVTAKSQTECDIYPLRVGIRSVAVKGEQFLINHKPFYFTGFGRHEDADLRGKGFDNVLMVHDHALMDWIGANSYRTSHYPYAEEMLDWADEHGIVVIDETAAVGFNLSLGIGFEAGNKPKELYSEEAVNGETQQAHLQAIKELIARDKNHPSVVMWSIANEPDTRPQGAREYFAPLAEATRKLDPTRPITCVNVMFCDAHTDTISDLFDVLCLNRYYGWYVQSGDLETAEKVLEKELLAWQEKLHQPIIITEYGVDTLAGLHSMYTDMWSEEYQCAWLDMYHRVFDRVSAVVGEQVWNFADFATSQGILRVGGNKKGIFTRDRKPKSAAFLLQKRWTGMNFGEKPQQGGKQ
# CHRM1: Muscarinic acetylcholine receptor M1 (CHRM1, Homo sapiens, UniProt P11229)
# Sequence of UniProt P20309 (whole entry, unmodified, looked up): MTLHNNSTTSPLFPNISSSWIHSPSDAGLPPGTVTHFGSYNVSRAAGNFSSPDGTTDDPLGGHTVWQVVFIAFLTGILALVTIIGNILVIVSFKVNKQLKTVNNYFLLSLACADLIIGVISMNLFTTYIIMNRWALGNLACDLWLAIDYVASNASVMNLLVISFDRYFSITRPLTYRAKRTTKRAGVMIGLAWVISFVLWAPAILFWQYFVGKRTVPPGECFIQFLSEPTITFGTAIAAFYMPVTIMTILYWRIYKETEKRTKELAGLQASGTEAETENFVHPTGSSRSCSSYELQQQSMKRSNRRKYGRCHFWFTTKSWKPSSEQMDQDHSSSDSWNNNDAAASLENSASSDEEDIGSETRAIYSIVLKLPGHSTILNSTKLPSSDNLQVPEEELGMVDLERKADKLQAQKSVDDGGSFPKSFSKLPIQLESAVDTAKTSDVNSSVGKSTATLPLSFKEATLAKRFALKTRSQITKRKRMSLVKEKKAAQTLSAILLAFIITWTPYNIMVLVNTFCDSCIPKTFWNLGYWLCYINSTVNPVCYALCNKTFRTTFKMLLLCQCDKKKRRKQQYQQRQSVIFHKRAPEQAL
# Sequence of UniProt P11229 (whole entry, looked up): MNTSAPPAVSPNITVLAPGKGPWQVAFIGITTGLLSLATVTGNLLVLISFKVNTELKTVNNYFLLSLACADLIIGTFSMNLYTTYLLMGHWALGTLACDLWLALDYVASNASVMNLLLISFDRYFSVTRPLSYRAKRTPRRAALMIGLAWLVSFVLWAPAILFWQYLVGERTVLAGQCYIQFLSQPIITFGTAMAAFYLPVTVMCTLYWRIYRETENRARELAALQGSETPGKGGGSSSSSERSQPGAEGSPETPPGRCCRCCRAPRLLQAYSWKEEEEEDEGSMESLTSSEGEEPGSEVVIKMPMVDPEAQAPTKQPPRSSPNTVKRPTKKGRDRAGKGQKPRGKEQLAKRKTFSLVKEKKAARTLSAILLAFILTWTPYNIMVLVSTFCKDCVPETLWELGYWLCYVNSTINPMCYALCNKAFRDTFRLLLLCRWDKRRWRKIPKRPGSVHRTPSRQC
# Sequence of UniProt P35372 (whole entry, looked up): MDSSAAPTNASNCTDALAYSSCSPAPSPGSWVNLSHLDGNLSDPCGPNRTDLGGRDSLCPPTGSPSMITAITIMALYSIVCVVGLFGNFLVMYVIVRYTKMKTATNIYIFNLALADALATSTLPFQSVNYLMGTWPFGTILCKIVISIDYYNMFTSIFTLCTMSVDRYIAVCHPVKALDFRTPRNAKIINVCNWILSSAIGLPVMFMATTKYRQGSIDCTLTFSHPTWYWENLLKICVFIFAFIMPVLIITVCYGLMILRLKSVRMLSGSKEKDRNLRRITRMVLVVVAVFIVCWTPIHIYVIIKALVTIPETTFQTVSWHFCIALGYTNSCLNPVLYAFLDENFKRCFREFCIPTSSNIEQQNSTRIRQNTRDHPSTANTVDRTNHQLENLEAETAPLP
# Sequence of UniProt Q9NYW4 (whole entry, looked up): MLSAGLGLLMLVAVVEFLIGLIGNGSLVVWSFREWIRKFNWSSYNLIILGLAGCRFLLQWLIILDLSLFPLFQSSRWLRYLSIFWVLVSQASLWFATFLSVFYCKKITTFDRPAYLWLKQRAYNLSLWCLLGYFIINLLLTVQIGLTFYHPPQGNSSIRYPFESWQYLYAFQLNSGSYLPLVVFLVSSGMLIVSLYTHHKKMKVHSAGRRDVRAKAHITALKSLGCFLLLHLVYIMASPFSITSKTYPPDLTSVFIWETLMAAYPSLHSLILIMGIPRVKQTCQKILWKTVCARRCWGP
# Sequence of UniProt P34969 (whole entry, looked up): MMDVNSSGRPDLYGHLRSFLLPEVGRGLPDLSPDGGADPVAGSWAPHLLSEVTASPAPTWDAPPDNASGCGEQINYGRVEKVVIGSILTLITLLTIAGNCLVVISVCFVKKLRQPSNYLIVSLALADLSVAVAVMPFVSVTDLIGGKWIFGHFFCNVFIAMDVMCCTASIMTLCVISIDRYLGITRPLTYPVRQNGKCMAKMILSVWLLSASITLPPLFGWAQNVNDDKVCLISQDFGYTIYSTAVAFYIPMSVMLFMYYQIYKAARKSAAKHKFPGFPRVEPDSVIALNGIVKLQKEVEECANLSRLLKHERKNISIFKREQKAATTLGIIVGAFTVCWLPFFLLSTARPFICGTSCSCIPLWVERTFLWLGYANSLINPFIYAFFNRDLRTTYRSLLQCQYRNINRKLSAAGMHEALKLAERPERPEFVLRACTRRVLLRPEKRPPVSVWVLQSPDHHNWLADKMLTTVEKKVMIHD
# Sequence of UniProt P50391 (whole entry, looked up): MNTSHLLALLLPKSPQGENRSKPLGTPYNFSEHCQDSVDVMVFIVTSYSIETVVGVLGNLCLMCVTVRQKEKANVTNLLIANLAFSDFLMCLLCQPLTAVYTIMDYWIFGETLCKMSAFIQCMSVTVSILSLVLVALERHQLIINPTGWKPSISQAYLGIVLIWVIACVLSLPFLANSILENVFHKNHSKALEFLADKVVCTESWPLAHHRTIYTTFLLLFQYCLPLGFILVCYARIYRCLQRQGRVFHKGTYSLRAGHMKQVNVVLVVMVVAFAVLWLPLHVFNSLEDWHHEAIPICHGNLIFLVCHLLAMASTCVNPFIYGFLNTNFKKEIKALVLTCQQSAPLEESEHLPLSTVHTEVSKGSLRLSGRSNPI
# Sequence of UniProt Q92847 (whole entry, looked up): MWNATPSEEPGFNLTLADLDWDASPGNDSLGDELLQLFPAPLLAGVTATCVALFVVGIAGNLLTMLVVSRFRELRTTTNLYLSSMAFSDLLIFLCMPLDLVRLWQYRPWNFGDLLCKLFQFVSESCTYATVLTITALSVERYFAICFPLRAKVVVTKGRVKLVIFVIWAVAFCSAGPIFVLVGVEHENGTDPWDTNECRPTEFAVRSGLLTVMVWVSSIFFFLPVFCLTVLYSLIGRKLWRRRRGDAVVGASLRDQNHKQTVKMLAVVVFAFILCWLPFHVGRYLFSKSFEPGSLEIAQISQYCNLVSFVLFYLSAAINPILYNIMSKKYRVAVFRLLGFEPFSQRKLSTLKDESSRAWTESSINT
SMILES,target,assay,system,setting,EC50
CSCC[C@H](NC(=O)[C@H](Cc1ccccc1)NC(=O)[C@H](Cc1c[nH]cn1)NC(=O)CNC(=O)[C@@H](NC(=O)[C@H](C)NC(=O)[C@H](Cc1c[nH]c2ccccc12)NC(=O)[C@H](CCC(N)=O)NC(=O)[C@@H]1CCC(=O)N1)C(C)C)C(N)=O,GRPR,"inositol phosphate, agonist",,,0.17 nM
c1cnc2c(c1)c1nccnc1c1cccnc12,"Taste receptor type 2 member 5 (TAS2R5, Homo sapiens, UniProt Q9NYW4)","calcium signal, agonist",,,77600 nM
Clc1ccc2c(c1)N=C(N1CCNCC1)c1ccccc1N2,"Muscarinic acetylcholine receptor M3 (CHRM3, Homo sapiens, UniProt P20309, A239G/Y149C)","calcium signal, agonist",,,2.1 nM
CC(=O)N[C@H](CCCNC(=N)N)C(=O)N[C@@H](Cc1ccc(O)cc1)C(=O)N[C@@H](CCCNC(=N)NC(=O)NCCCCN)C(=O)N[C@@H](CC(C)C)C(=O)N[C@@H](CCCNC(=N)N)C(=O)N[C@@H](Cc1ccc(O)cc1)C(N)=O,"Neuropeptide Y receptor type 4 (NPY4R, Homo sapiens, UniProt P50391)","β-arrestin 2 recruitment, agonist",HEK293T,,624 ± 150 nM
[2H]C([2H])(C)N1CCN(C2=Nc3cc(Cl)ccc3Nc3ccccc32)CC1,"Muscarinic acetylcholine receptor M3 (CHRM3, Homo sapiens, UniProt P20309)","calcium signal, agonist",,,> 30000 nM
CN(C)[C@H](CNC(=O)/C=C/c1cccc2ccccc12)Cc1ccc(O)cc1,"Mu-type opioid receptor, with Gi3 (OPRM1, Homo sapiens, UniProt P35372)","receptor activation, agonist",,,19 nM
CSCC[C@H](NC=O)C(=O)N[C@@H](Cc1ccccc1)C(=O)N[C@H](C(=O)N[C@@H](Cc1ccccc1)C(=O)N[C@@H](CCC(=O)O)C(=O)N1CCC[C@H]1C(=O)N[C@@H](Cc1ccccc1)C(=O)N1CCC[C@H]1C(=O)N[C@H](C(=O)N[C@@H](CC(N)=O)C(=O)O)[C@@H](C)O)[C@@H](C)O,"fMet-Leu-Phe receptor (FPR1, Homo sapiens, UniProt P21462, N192K)","receptor surface downregulation, agonist",CHO cells,"1 h, 37 °C",3.1 ± 0.2 nM
CSCC[C@H](NC(=O)[C@H](Cc1ccccc1)NC(=O)[C@H](Cc1c[nH]cn1)NC(=O)CNC(=O)[C@@H](NC(=O)[C@H](C)NC(=O)[C@H](Cc1c[nH]c2ccccc12)NC(=O)[C@H](CCC(N)=O)NC(=O)[C@@H]1CCCN1C(=O)[C@@H](NC(=O)[C@@H]1CCC(=O)N1)C(C)C)C(C)C)C(N)=O,GRPR,"inositol phosphate, agonist",,,0.23 nM
CC(C)C[C@H](NC(=O)[C@H](CCCNC(=N)N)NC(=O)[C@@H]1CCCN1C(=O)[C@H](CCCCN)NC(=O)[C@H](Cc1ccccc1)NC(=O)CCC(=O)Nc1ccc2c(c1)Cc1cc(Br)ccc1-2)C(N)=O,"diapause hormone receptor (Helicoverpa zea, UniProt S5LVZ5)","aequorin luminescence, agonist","CHO-K1 cells, Ga16 co-expressing",,20.6 nM
CC(=O)N[C@@H](CCCNC(=N)N)C(=O)N[C@@H](CCCNC(=N)N)C(=O)N[C@H](Cc1ccc(I)cc1)C(=O)N[C@H](C(N)=O)[C@@H](c1ccccc1)c1c[nH]c2ccccc12,Mc1r,"cAMP, agonist, AlphaScreen",,,260 nM
CC(C)[C@H]1CC[C@@H](N2CC[C@@](C)(c3cccc(O)c3)[C@@H](C)C2)CC1,"Mu-type opioid receptor (OPRM1, Homo sapiens, UniProt P35372)","GTPγS binding, agonist, radiometric",,,> 10000 nM
"CC1(CCN2CCc3ccccc3C2)Cc2cc(Cl)ccc2C1=O (single isomer, unassigned)","5-hydroxytryptamine receptor 7 (HTR7, Homo sapiens, UniProt P34969)","β-arrestin recruitment, agonist",,,158 nM
CC(=O)N[C@@H](CCCNC(=N)N)C(=O)N[C@@H](CCCNC(=N)N)C(=O)N[C@@H](C(=O)N1Cc2ccccc2C[C@H]1C(N)=O)[C@H](c1ccccc1)c1c[nH]c2ccccc12,Mc1r,"cAMP, agonist, AlphaScreen",,,210 nM
CN(C)c1nc(N2CCNCC2)c2sc3nc(-c4ccccc4)ccc3c2n1,uidA,"enzyme activity, inhibitor, in-cell",K12 MG1655,24 h,7 nM
C[N+](C)(CC#CCOC1=NOCC1)CCCCCCNC(=O)CCOCCOCCOCCOCCNC(=O)CCCC(=O)NCCCCC(C(=O)O)N(CC(=O)O)CC(=O)O (stereo not drawn),CHRM1,"calcium response, agonist",CHO,,2300 nM
Cn1ccc(-c2ccc(Cn3cc(C(=O)N[C@H]4CCCC[C@@H]4O)c4c(F)cc(F)cc43)cn2)n1,CHRM1,"calcium mobilisation, positive allosteric modulator",CHO,added: acetylcholine EC20,224 nM
C1CCc2c(c(N3CCOCC3)nc3sc4c(N5CCNCC5)nnnc4c23)C1,uidA,,,,74 ± 7 nM
CC(C)C[C@H](NC(=O)[C@H](CC(C)C)NC(=O)[C@@H](NC(=O)[C@H](Cc1ccccc1)NC(=O)[C@@H](Cc1c[nH]c2ccccc12)NC(=O)[C@@H](N)CCCCN)[C@@H](c1ccccc1)c1c[nH]c2ccccc12)C(N)=O,"Growth hormone secretagogue receptor type 1 (GHSR, Homo sapiens, UniProt Q92847)","inositol phosphate, agonist, TR-FRET",,,> 1000 nM

# A few entries again:
SMILES,target,assay,system,setting,EC50
CSCC[C@H](NC=O)C(=O)N[C@@H](Cc1ccccc1)C(=O)N[C@H](C(=O)N[C@@H](Cc1ccccc1)C(=O)N[C@@H](CCC(=O)O)C(=O)N1CCC[C@H]1C(=O)N[C@@H](Cc1ccccc1)C(=O)N1CCC[C@H]1C(=O)N[C@H](C(=O)N[C@@H](CC(N)=O)C(=O)O)[C@@H](C)O)[C@@H](C)O,"fMet-Leu-Phe receptor (FPR1, Homo sapiens, UniProt P21462, N192K)","receptor surface downregulation, agonist",CHO cells,"1 h, 37 °C",3.1 ± 0.2 nM
CC(=O)N[C@@H](CCCNC(=N)N)C(=O)N[C@@H](CCCNC(=N)N)C(=O)N[C@@H](C(=O)N1Cc2ccccc2C[C@H]1C(N)=O)[C@H](c1ccccc1)c1c[nH]c2ccccc12,Mc1r,"cAMP, agonist, AlphaScreen",,,210 nM
CSCC[C@H](NC(=O)[C@H](Cc1ccccc1)NC(=O)[C@H](Cc1c[nH]cn1)NC(=O)CNC(=O)[C@@H](NC(=O)[C@H](C)NC(=O)[C@H](Cc1c[nH]c2ccccc12)NC(=O)[C@H](CCC(N)=O)NC(=O)[C@@H]1CCC(=O)N1)C(C)C)C(N)=O,GRPR,"inositol phosphate, agonist",,,0.17 nM
